# Measured values from different studies.
# Every numbered part comes from another study and shows a few of its results, in no order.
# Chain of UniProt Q15418 (whole entry, looked up): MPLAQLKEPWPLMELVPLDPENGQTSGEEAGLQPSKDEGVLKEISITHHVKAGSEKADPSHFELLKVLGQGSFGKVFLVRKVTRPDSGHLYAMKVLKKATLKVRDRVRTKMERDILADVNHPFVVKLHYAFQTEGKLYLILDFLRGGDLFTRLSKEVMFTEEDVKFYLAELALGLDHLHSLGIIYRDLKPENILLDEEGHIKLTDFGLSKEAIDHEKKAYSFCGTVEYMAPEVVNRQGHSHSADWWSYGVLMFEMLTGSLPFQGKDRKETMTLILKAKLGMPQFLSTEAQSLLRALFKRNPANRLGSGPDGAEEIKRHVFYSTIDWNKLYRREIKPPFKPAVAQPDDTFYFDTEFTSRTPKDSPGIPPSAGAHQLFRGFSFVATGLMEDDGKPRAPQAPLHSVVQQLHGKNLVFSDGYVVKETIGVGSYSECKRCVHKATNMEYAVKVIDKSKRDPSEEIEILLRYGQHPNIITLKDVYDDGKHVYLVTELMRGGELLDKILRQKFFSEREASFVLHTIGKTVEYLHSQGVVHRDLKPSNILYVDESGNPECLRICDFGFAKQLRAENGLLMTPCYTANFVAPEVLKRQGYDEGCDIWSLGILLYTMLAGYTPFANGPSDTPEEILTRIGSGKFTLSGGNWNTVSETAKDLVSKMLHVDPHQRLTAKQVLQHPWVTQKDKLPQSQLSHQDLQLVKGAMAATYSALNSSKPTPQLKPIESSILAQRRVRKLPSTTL
# Chain of UniProt P31645 (whole entry, looked up): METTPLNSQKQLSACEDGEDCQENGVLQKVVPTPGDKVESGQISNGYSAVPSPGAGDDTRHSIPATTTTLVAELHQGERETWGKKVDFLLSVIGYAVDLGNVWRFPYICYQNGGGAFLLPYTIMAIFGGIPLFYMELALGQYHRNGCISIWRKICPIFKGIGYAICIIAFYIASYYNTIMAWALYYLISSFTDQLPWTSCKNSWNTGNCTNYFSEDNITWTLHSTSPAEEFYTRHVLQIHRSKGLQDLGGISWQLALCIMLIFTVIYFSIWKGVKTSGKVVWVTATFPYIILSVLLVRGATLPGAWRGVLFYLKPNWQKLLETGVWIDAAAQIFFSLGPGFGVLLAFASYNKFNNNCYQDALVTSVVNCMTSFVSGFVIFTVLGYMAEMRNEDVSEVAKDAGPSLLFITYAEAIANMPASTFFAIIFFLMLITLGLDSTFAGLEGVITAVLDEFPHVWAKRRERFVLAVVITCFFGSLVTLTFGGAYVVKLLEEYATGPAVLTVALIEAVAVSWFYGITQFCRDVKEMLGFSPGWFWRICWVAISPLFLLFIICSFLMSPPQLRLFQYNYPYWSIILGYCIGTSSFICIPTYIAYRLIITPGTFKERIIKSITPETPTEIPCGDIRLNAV
# Chain of UniProt P21918 (whole entry, looked up): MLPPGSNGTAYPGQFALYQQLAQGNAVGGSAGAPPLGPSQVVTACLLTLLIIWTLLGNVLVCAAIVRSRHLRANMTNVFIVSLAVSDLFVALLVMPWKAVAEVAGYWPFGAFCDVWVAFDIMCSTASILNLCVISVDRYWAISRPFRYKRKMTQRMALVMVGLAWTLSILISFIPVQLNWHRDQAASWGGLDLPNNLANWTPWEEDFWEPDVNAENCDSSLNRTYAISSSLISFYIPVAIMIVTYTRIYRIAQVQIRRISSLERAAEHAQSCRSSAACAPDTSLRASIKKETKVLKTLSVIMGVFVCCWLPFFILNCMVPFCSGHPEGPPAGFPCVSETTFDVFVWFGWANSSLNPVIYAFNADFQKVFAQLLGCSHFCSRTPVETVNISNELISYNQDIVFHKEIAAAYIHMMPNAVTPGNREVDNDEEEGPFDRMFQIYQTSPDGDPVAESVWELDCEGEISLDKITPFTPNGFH
# Chain of UniProt Q16644 (whole entry, looked up): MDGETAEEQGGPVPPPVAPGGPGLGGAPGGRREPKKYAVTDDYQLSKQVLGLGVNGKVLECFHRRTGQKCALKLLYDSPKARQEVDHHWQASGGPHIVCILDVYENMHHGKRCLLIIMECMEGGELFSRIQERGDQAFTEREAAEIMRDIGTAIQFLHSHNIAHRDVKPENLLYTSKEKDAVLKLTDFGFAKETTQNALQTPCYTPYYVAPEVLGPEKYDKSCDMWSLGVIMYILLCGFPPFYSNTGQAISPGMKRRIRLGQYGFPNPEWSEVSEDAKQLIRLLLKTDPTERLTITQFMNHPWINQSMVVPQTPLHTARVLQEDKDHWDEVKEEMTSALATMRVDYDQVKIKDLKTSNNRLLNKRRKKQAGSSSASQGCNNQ
# Chain of UniProt P08908 (whole entry, looked up): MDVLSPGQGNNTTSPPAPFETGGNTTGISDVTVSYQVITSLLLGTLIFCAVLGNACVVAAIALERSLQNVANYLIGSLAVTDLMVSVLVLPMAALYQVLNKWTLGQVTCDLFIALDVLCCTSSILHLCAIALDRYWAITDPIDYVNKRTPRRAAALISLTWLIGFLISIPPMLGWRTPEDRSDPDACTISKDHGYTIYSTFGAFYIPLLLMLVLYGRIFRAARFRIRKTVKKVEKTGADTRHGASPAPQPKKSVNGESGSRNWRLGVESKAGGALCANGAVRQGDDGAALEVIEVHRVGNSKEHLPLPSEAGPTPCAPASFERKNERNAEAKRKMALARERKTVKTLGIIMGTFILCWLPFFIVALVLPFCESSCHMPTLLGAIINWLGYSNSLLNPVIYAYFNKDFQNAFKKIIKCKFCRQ

# Block 1
# Compound: Cc1cc2c(-c3ccco3)cnc(N[C@H]3CCN(C)C[C@@H]3C(=O)NC3CCCCC3)c2[nH]c1=O
# Tested at: 10 µM
target,effect on,inhibition
"5-hydroxytryptamine receptor 1A (HTR1A, Homo sapiens, UniProt P08908)",ligand displacement,16.9%
"Sodium-dependent serotonin transporter (SLC6A4, Homo sapiens, UniProt P31645)",cell-free assay,13.8%
"D(1B) dopamine receptor (DRD5, Homo sapiens, UniProt P21918)",ligand displacement,35.4%

# Mixed results
SMILES,target or system,test,setting,how to read,measurement,value
CC(C)(C)c1cc(C=C(C#N)C#N)cc(Br)c1O,"MAP kinase-activated protein kinase 3 (MAPKAPK3, Homo sapiens, UniProt Q16644)","enzyme activity, inhibitor",0.5 µM,,remaining activity,103%
CCCN1CCC[C@@H]2Cc3n[nH]cc3C[C@H]21,mouse MPNST tumor cells,"high-content immunofluorescence imaging, item: nuclear SOX9","10 µM, 12 h, mean of 2 replicates","baseline: DMSO control, higher = more nuclear SOX9",nuclear SOX9 intensity,104 % of DMSO
O=C1NC(=O)c2c1c1c3ccccc3n3c1c1c2c2ccccc2n1[C@H]1CC[C@@H]3O1,"Ribosomal protein S6 kinase alpha-1 (RPS6KA1, Homo sapiens, UniProt Q15418)","enzyme activity, inhibitor",0.5 µM,baseline: control,remaining activity,1.58%
NCC(O)c1ccc(O)cc1 (racemic),mouse MPNST tumor cells,"high-content immunofluorescence imaging, item: nuclear SOX9","10 µM, 12 h, mean of 2 replicates","baseline: DMSO control, higher = more nuclear SOX9",nuclear SOX9 intensity,90.2 % of DMSO
CC(NC(C)(C)C)C(=O)c1cccc(Cl)c1.Cl (centres unmarked),Sarcocystis neurona,parasite growth,"concentration not given, secondary screen",,inhibition,-31.3%

# Excerpt of the above (mixed results):
SMILES,target or system,test,setting,how to read,measurement,value
CC(NC(C)(C)C)C(=O)c1cccc(Cl)c1.Cl (centres unmarked),Sarcocystis neurona,parasite growth,"concentration not given, secondary screen",,inhibition,-31.3%
